Measurements of several laboratories.
Lines come from different studies, so protocols differ. Several values in a cell are separate wells, animals, samples, runs or records. ± gives the spread as reported.
UniProt Q16539, sequence (whole entry, looked up): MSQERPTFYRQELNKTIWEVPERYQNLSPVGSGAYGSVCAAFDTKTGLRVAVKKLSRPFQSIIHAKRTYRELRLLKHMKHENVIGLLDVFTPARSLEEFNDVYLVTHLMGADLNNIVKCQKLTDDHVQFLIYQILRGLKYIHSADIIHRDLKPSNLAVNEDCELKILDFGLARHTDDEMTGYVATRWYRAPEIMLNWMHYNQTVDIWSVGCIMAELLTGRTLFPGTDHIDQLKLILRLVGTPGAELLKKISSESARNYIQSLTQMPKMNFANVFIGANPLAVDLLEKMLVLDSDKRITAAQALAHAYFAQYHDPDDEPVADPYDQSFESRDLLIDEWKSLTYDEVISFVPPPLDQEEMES

| SMILES | target or system | test | system | setting | how to read | measurement | value |
| --- | --- | --- | --- | --- | --- | --- | --- |
| Cc1nc(Nc2ccc(CC(=O)O)cc2)nc(Nc2ccc(F)c(C(F)(F)F)c2)c1C | – | – | mice, chronic ethanol plus binge | intraperitoneal, 0.3 mg/kg daily, ethanol diet 4 weeks, dosed last two | baseline: vehicle | body weight | no effect |
| C[C@@H]1COCCN1c1cc(C2([S@](C)(=N)=O)CC2)nc(-c2cc[nH]c3nccc2-3)n1 | – | – | patients, advanced solid tumours | oral, 20 mg twice daily, 17 days, added: carboplatin | – | discontinuation due to adverse event | 0 % patients |
| CCC[C@@](N)(CO)CCc1ccc(OCCCCCC(C)C)cc1 | – | – | dog, male hounds, plasma | oral capsule, 15 mg/kg, geometric mean | – | AUC(0-inf) | 16.9 µM·h |
| C[C@@H](NC(=O)N1C(=O)[C@H](Cc2ccnc(N)c2)[C@H]1C(=O)O)C1CCCCC1 | – | – | healthy adult Chinese volunteers | continuous intravenous infusion, 0.3 mg/kg/h, 5-day infusion, CTCAE 5.0 grading | – | incidence of urine ketone body positive | 0% |
| CO[C@H]1C[C@@H]2CC[C@@H](C)[C@@](O)(O2)C(=O)C(=O)N2CCCC[C@H]2C(=O)O[C@H]([C@H](C)C[C@@H]2CC[C@@H](OC(=O)NCCOCCOCCOCCOCCOCCOCCOCCOCCC(=O)N3CCc4cc(Cn5nc(-c6ccc7oc(N)nc7c6)c6c(N)ncnc65)ccc4C3)[C@H](OC)C2)C[C@@H](O)[C@H](C)/C=C(\C)[C@@H](O)[C@@H](OC)C(=O)[C@H](C)C[C@H](C)/C=C/C=C/C=C/1C | – | phase 1 dose escalation, refers to: rash | advanced solid tumour patients | intravenous, 16 mg weekly, any grade | – | TRAE incidence | 25% |
| C[C@H]1CN(c2n[nH]c3nc(N[C@H]4CC[C@H](NS(=O)(=O)CCC(F)(F)F)CC4)ncc23)CCO1 | Mitogen-activated protein kinase 14 (MAPK14, Homo sapiens, UniProt Q16539) | competitor, Kinobeads competition | HEK293, K562, placenta extract | – | – | Hill slope | 0.97 |
| CCCSc1ccc2nc(NC(=O)OC)[nH]c2c1 | – | – | mouse, blood | oral, 50 mg/kg, tolerability, mean | – | basophils | 0.42% |
| COc1cc2c(Oc3ccc4[nH]c(C)cc4c3F)ccnc2cc1OCC1(N)CC1 | – | – | paediatric recurrent refractory sarcoma | 8 mg | – | grade 1 or 2 Headache | 0% |
| [O-][S+]1CCc2nc(N3CCC(c4ncc(Cl)cn4)CC3)nc(NC3(CO)CCC3)c21 (stereo not shown) | – | refers to: mean | idiopathic pulmonary fibrosis patients, blood | 18 mg twice daily, at last treatment | – | fibrinogen | 4.2 g/L |
| Cn1cncc1-c1c(F)cncc1NC(=O)c1c(N)nn2cc(F)cnc12 | – | – | human patients | oral, 220 mg once daily, 21 days | – | dose-limiting toxicity platelet decrease | 0% |
| COC[C@@H](CC(C)C)NC(=O)c1ccc(C)c(C)c1 | – | – | Hsd:ICR (CD-1) mouse, male, bone marrow | oral, 1352 mg/kg, 24 h | – | micronucleated PCE per 1000 PCE | 0 |
| CC(C)N(CCc1c[nH]c2cccc(OC(=O)CCCC(=O)O)c12)C(C)C.Cl | – | – | male beagle dog, plasma | intravenous, 1 mg/kg | – | Tmax | 4.98 min |
| O=S(=O)(F)c1cc(C(F)(F)F)cc(C(F)(F)F)c1 | – | chemical stability, HPLC-MS | borate buffered saline | pH 10.2, no N-acetyl-lysine | – | degradation rate constant | 27.2 h⁻¹ |
| C/C(=N\C#N)N(C)Cc1ccc(Cl)nc1 | – | – | soil | 56 days, nominal 0.37 | – | recovery | 3.5% |
| O=C(Nc1ccccc1)C1CCN(C(=O)Oc2cccnc2)CC1 | – | adverse event reporting | healthy women | oral, 60 mg, 7 days | – | subjects with dry mouth | 0% |
| CN1CC[C@@H](c2c(O)cc(O)c3c(=O)cc(-c4ccc(C(F)(F)F)cc4Cl)oc23)[C@@H]1CO | – | refers to: Hypertension | B-cell malignancies or AML | oral, 100 mg, continuous dosing | – | patients with adverse event | 12.5% |
| CCN1[C@@H](C(=O)NC23CCC(C(=O)O)(CC2)CC3)[C@H](c2cccc(Cl)c2F)[C@]2(C(=O)Nc3cc(Cl)ccc32)C12CCCCC2 | – | – | patients with advanced solid tumours | oral, 150 mg | – | grade ≥3 Thrombocytopenia incidence | 50% |
| Cc1ccc2ccccc2c1 | – | – | pooled human liver microsomes | 2.5 µM, pH 7.4 | – | metabolism rate | 637 pmol/min/mg |
| CC(C)C(=O)OC[C@H]1O[C@@H](n2ccc(NO)nc2=O)[C@H](O)[C@@H]1O | – | – | rat maternal placenta dialysate | 5 ng/mL, 6 h, room temperature, low concentration, added: NHC 25 ng/mL | – | bench-top stability | 99.71 ± 0.27% |
| CC(C)C[C@H](NC(=O)[C@H](CCCCN)NC(=O)OCC1c2ccccc2-c2ccccc21)C(=O)N[C@H](C(=O)N[C@@H](Cc1ccccc1)C(=O)N[C@@H](Cc1ccccc1)C(=O)N[C@@H](CCCCN)C(=O)NCC(=O)N[C@@H](Cc1ccccc1)C(=O)N[C@@H](C)C(=O)N[C@@H](Cc1c[nH]c2ccccc12)C(=O)N[C@@H](CC(N)=O)C(=O)N[C@H](C(=O)N[C@H]1CSSC[C@@H](C(=O)N[C@@H](Cc2c[nH]cn2)C(=O)N[C@@H](CCCNC(=N)N)C(=O)N[C@@H](CCCNC(=N)N)C(=O)N[C@@H](C)C(=O)N[C@@H](CC(N)=O)C(N)=O)NC(=O)[C@H](C(C)C)NC(=O)[C@H](CCCNC(=N)N)NC(=O)[C@H](C(C)C)NC(=O)CNC(=O)[C@H](CC(N)=O)NC(=O)[C@H](CCCNC(=N)N)NC(=O)[C@H](Cc2ccc(O)cc2)NC(=O)[C@H](C(C)C)NC1=O)C(C)C)C(C)C | – | HPLC | mouse kidney homogenate | 2560 µM, 2.00 h, 37 °C, 50 mg/mL tissue | – | remaining peptide | 86% and 90.5% |

| SMILES | target or system | test | system | setting | how to read | measurement | value |
| --- | --- | --- | --- | --- | --- | --- | --- |
| C[C@@H]1OC(=O)NN=C1c1ccc(-c2ccc(F)cc2)c(C(F)(F)F)c1 | – | phase I trial, refers to: AST increased worst grade 1 | human patients | 5 mg loading then 0.25 mg daily | – | patients with adverse event | 0% |
| C=CC(=O)Nc1cc(Nc2nccc(Nc3cc(Cl)c(F)cc3C(C)(C)O)n2)c(OC)cc1N1CC[C@@H](N(C)C)C1 | – | treatment-emergent adverse events | human | oral, 400 mg, phase I clinical trial | – | incidence of blood creatinine increased | 40% |
| CC1(C)[C@H](C(=O)OCc2cccc(Oc3ccccc3)c2)[C@@H]1C=C(Cl)Cl | – | refers to: CYP2C19 | human, age 5 years, recombinant human CYP2C19 | 0.1 µM | – | enzyme contribution to clearance | 3.57% |
| CC(C)[N+]1(C)[C@@H]2CC[C@H]1C[C@@H](OC(=O)C(CO)c1ccccc1)C2 (stereo partly shown) | – | – | human | inhaled | – | lung deposited fraction | 0.07 |
| Cc1cc(C)c(CNC(=O)c2cc(Cl)c3c(c2C)O[C@@](C)([C@H]2CC[C@H](N(C)C)CC2)O3)c(=O)[nH]1 | – | – | human, relapsed/refractory NHL | concentration not given, all TEAEs, grade 5 | – | Rash incidence | 0% |
| COc1ccc(-c2c(-c3ccc(C#N)c(F)c3)nc(N3CCC(N)CC3)n(C)c2=O)cc1F | – | refers to: Chest pain | human patients | oral, dose not given, dose escalation, NG | – | serious adverse event incidence | 0% |
| N.N.[Cl][Pt][Cl] | – | – | mice, serum | dose not given | – | uric acid | 5.47 mg/dL |
| CC(=O)c1c(C)c2cnc(Nc3ccc(C4CCN(CCS(C)(=O)=O)CC4)cn3)nc2n(C2CCCC2)c1=O | – | – | beagle dog, female, plasma | oral, 6 mg/kg, day 28, repeated dosing 4 weeks | – | Cmax | 149 ng/mL |
| O=S(=O)(Nc1ccccc1)c1ccc(NC(=S)Nc2ccccc2)cc1 | – | refers to: BA% | female mouse, blood | oral, 80 mg/kg daily, 14 days | – | blood cell fraction | 0.71% |
| Cn1cc(CN2CCCC(COc3ccccc3C(=O)N3CCCCC3)C2)c2ccccc21 (stereo not shown) | Vero-E6 | CellTiter-Glo ATP | – | 72 h, first round 5-point | baseline: DMSO 0%, hyamine -100%, more negative, more toxic | maximum response | -5.85% |
| C=CC(=O)N1CC[C@H](n2nc(C#Cc3cc(OC)cc(OC)c3)c3c(N)ncnc32)C1 | – | – | human patients | oral, dose not given, QD regimen, adverse drug reaction, added: ferric citrate hydrate | – | ALT increased, any grade | 100% |
| C[C@]1(CO)Cc2ncn(-c3ccc(C#N)c(Cl)c3)c2C(=O)O1 | – | – | human | 80 mg single dose | – | subjects with drug-related orthostatic hypotension | 0% |
| CC(=O)Nc1cccc(-n2c(=O)n(C3CC3)c(=O)c3c(Nc4ccc(I)cc4F)n(C)c(=O)c(C)c32)c1 | – | – | Japanese patients | dose not given, part | – | discontinuation due to adverse event | 17% |
| Cn1ncc(-c2nc(N[C@H]3CC[C@H](N)CC3)ncc2Cl)c1CC1CC1 | – | phase I dose escalation | human patients | dose not given, any-grade TEAE | baseline: patients | alanine aminotransferase increase incidence | 7% |
| CC(Nc1nc(N2CCNCC2C)nc2ccccc12)c1ccccc1 (stereo not shown) | Vero-E6 | CellTiter-Glo ATP | – | 72 h, retest 8-point duplicates | baseline: DMSO 0%, hyamine -100%, more negative, more toxic | maximum response | -10.1% |
| C=CCNc1c(O)cc2c(O)c1C[C@@H](C)C[C@H](OC)[C@H](O)[C@@H](C)/C=C(\C)[C@H](OC(N)=O)[C@@H](OC)/C=C\C=C(/C)C(=O)N2 | – | – | human unresectable metastatic GIST or sarcoma | intravenous, dose not given | – | discontinuation due to death | 3.7% |
| CC[C@H](C)[C@H](NC(=O)[C@H](CCCCN)NC(=O)[C@H](CCC(=O)O)NC(=O)[C@H](CCCCN)NC(=O)[C@H](CO)NC(=O)[C@H](CCCCN)NC(=O)[C@H](CCCNC(=N)N)NC(=O)[C@H](Cc1ccccc1)NC(=O)[C@H](Cc1ccccc1)NC(=O)[C@H](CC(=O)O)NC(=O)CNC(=O)[C@H](CC(C)C)NC(=O)[C@@H](N)CC(C)C)C(=O)NCC(=O)N[C@@H](CCCCN)C(=O)N[C@@H](CCC(=O)O)C(=O)N[C@@H](Cc1ccccc1)C(=O)N[C@@H](CCCCN)C(=O)N[C@@H](CCCNC(=N)N)C(=O)N[C@H](C(=O)N[C@H](C(=O)N[C@@H](CCC(N)=O)C(=O)N[C@@H](CCCNC(=N)N)C(=O)N[C@H](C(=O)N[C@@H](CCCCN)C(=O)N[C@@H](CC(=O)O)C(=O)N[C@@H](Cc1ccccc1)C(=O)N[C@@H](CC(C)C)C(=O)N[C@@H](CCCNC(=N)N)C(=O)N[C@@H](CC(N)=O)C(=O)N[C@@H](CC(C)C)C(=O)N[C@H](C(=O)N1CCC[C@H]1C(=O)N[C@@H](CCCNC(=N)N)C(=O)N[C@H](C(=O)N[C@@H](CCC(=O)O)C(=O)N[C@@H](CO)C(=O)O)[C@@H](C)O)C(C)C)[C@@H](C)CC)C(C)C)[C@@H](C)CC | – | LC-MS | buffer with human neutrophil elastase | 40 µM, 540 min, pH 7.5, 37 °C | baseline: 0 h | remaining intact peptide | 0.769% and 0.461% and 0.815% |
| CCc1ccc(CC/C=C/c2ccc3c(c2)C(=O)CC3)cc1 | – | – | Sprague-Dawley rat, male | oral, 30 mg/kg/day, 14 days | – | Hemoglobin | 149 g/L |
| O=C1Nc2cc3[nH]nc(-c4ccncc4)c3cc2CN1Cc1ccccc1 | – | CTCAE v4.03 | advanced solid tumour patients | intravenous, 0.45 mg/kg, schedules 1/2 | – | patients with blurred vision | 0% |
| N[C@@H]1c2ccccc2OC12CCN(c1cnc3c(N4CCCc5ncccc54)n[nH]c3n1)CC2 | – | – | advanced solid tumour patients | oral, 75 mg once daily | – | patients with serious TEAE | 57.1% |
